Results gathered from unrelated publications.
Numbered parts are unrelated; each lists some results of a single study.
Chain of UniProt Q05655 (whole entry, looked up): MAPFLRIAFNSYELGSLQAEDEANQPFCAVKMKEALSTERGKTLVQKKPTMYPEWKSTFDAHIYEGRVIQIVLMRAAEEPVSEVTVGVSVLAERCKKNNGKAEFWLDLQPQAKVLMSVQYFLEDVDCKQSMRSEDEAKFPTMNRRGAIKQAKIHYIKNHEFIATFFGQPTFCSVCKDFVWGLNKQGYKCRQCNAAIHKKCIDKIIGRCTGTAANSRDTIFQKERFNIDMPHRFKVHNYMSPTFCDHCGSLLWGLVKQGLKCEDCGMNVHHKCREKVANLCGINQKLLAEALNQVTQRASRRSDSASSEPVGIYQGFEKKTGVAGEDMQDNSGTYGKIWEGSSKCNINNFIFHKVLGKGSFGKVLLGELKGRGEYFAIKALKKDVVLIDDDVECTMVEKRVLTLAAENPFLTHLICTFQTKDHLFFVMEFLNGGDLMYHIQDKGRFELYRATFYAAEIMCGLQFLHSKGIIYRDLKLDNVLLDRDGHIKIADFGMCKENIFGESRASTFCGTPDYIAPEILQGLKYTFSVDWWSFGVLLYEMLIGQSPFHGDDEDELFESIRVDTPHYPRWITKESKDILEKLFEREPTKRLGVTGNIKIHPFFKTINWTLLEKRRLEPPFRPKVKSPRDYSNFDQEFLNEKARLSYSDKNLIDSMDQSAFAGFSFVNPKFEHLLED
Chain of UniProt Q13546 (whole entry, looked up): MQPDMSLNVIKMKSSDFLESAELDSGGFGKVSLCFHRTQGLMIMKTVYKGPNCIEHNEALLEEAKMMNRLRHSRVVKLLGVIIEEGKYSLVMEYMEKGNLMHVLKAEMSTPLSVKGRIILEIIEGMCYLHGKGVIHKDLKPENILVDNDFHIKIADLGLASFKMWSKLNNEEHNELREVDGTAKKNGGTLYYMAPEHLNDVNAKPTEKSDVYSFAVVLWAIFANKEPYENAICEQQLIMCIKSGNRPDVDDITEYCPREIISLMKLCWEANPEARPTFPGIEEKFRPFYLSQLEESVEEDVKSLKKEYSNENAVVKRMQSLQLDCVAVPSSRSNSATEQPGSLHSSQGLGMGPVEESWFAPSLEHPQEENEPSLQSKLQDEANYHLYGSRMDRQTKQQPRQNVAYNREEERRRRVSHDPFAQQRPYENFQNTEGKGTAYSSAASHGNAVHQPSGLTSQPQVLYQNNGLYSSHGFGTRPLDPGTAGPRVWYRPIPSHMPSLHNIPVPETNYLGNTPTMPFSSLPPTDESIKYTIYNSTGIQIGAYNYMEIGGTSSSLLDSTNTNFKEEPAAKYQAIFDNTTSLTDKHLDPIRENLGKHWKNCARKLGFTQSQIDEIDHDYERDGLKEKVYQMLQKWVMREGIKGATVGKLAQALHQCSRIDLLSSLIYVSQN
Chain of UniProt Q9Y2I7 (whole entry, looked up): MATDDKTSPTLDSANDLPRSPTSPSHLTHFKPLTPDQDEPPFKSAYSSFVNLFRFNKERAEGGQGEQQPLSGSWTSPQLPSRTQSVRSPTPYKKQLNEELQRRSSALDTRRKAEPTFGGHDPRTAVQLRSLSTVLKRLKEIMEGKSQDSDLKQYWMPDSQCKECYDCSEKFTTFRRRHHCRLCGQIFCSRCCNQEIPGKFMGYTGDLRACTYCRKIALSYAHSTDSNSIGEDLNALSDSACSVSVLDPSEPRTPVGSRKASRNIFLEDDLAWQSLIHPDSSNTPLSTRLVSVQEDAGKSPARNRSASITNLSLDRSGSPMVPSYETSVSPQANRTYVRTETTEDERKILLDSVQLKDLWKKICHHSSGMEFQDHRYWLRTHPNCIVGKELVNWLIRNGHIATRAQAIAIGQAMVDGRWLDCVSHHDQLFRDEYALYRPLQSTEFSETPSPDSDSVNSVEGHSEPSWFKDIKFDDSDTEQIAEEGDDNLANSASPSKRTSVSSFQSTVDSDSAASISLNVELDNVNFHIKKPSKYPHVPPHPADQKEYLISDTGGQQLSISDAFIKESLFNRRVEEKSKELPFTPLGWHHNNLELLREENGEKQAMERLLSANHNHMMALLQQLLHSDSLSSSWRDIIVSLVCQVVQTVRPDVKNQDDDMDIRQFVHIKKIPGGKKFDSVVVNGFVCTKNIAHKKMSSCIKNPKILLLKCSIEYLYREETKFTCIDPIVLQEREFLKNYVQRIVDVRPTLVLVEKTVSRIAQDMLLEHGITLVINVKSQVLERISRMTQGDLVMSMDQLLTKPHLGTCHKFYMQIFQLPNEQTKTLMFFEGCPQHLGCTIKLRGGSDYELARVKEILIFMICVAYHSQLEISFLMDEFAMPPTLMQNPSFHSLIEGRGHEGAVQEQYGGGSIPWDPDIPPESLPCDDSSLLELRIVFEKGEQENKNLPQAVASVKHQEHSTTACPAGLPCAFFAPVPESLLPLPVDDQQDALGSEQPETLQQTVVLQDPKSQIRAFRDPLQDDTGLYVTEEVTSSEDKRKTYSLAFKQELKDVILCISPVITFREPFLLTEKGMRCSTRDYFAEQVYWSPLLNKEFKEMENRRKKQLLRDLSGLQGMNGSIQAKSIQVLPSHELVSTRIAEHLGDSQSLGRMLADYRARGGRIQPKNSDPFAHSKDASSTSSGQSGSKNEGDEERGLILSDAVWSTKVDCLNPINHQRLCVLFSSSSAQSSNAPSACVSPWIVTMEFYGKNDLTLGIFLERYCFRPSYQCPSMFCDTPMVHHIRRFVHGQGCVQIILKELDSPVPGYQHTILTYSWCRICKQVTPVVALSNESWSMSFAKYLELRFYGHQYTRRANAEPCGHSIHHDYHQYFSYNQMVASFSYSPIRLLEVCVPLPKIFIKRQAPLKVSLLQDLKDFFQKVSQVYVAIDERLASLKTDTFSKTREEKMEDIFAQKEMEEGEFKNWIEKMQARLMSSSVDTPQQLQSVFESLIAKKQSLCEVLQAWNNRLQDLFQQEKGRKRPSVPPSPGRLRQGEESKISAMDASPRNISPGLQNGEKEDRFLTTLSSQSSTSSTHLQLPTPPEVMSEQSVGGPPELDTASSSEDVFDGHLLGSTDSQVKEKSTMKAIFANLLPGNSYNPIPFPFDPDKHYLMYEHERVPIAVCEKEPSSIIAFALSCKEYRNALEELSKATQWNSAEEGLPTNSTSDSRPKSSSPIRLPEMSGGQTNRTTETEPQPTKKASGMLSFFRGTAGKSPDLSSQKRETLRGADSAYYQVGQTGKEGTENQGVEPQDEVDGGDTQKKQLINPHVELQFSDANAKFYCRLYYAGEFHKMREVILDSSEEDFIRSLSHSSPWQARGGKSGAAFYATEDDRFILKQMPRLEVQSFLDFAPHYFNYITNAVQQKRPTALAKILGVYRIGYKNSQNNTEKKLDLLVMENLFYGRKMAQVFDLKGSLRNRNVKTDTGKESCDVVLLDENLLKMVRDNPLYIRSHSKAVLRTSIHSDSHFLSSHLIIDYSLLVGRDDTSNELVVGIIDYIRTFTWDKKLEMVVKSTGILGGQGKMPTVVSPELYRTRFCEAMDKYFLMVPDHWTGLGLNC
Chain of UniProt Q9UQM7 (whole entry, looked up): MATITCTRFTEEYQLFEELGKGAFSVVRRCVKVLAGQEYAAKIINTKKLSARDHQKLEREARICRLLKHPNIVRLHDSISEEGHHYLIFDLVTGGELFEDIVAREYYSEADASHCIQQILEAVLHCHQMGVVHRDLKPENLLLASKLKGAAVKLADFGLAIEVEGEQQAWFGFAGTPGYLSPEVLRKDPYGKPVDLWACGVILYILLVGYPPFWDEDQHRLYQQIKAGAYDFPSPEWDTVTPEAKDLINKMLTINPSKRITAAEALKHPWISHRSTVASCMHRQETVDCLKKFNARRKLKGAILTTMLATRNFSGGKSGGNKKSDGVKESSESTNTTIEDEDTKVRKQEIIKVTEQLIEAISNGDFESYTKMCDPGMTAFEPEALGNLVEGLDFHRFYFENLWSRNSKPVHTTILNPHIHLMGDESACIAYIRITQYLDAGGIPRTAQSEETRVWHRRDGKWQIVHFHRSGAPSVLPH
Chain of UniProt Q16620 (whole entry, looked up): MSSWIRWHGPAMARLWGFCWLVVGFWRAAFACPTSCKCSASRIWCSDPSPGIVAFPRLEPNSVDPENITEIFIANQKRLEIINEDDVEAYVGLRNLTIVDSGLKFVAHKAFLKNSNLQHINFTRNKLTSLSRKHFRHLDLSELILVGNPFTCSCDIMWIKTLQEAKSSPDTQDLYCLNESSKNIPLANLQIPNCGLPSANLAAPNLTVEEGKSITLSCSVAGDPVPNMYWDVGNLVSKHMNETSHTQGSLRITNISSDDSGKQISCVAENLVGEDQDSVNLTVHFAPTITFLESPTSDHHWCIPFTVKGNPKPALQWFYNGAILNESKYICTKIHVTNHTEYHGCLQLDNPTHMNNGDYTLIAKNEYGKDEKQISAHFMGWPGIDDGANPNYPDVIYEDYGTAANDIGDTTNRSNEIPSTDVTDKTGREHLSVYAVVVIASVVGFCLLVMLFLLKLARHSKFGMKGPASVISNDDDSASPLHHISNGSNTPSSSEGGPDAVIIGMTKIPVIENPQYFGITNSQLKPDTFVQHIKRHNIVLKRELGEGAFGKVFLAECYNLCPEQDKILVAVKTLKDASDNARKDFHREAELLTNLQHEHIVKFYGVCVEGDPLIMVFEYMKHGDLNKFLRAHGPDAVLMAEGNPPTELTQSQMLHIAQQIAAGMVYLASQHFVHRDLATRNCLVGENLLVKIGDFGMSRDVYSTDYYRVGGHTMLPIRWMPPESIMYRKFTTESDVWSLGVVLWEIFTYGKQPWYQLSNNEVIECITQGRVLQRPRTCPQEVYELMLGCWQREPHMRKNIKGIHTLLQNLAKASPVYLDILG

Sample 1 — SMILES: CC(C)(O)c1cncc(-c2nc3ccc(F)cc3n2C2CC2)c1; effect on: cell-free assay; technique: competition with immobilised ligand; tested at: 1 µM
| target | remaining binding [%] |
| --- | --- |
| Calcium/calmodulin-dependent protein kinase type II subunit alpha (CAMK2A, Homo sapiens, UniProt Q9UQM7) | 94 |
| Mast/stem cell growth factor receptor Kit (KIT, Homo sapiens, UniProt P10721, D816V) | 100 |
| BDNF/NT-3 growth factors receptor (NTRK2, Homo sapiens, UniProt Q16620) | 100 |
| Rho-associated protein kinase 1 (ROCK1, Homo sapiens, UniProt Q13464) | 99 |
| Serine/threonine-protein kinase Nek10 (NEK10, Homo sapiens, UniProt Q6ZWH5) | 100 |
| Protein kinase C delta type (PRKCD, Homo sapiens, UniProt Q05655) | 100 |
| Fibroblast growth factor receptor 2 (FGFR2, Homo sapiens, UniProt P21802) | 100 |
| 1-phosphatidylinositol 3-phosphate 5-kinase (PIKFYVE, Homo sapiens, UniProt Q9Y2I7) | 99 |
| Serine/threonine-protein kinase Sgk3 (SGK3, Homo sapiens, UniProt Q96BR1) | 100 |
| Receptor-interacting serine/threonine-protein kinase 1 (RIPK1, Homo sapiens, UniProt Q13546) | 100 |

Sample 2 — cell line: HaCaT; tested at: 100 µM; time: 36 h
| Compound | viability [%] |
| --- | --- |
| O=C(O)Cc1cc(I)c(Oc2ccc(O)c(I)c2)c(I)c1 | 60.1 |
| CN1CCC[C@@H]1Cc1c[nH]c2ccc(CCS(=O)(=O)c3ccccc3)cc12 | 52.2 |
| CC(=O)Oc1cc(C)c(OC(C)=O)c2ccccc12 | 8.55 |
| CO[C@H]1C[C@@H]2CC[C@@H](C)[C@@](O)(O2)C(=O)C(=O)N2CCCC[C@H]2C(=O)O[C@H]([C@H](C)C[C@@H]2CC[C@@H](OCCO)[C@H](OC)C2)CC(=O)[C@H](C)/C=C(\C)[C@@H](O)[C@@H](OC)C(=O)[C@H](C)C[C@H](C)/C=C/C=C/C=C/1C | 6.76 |
| Cc1ccc([C@@H]2O[C@H](CO)[C@@H](O)[C@H](O)[C@H]2O)cc1Cc1ccc(-c2ccc(F)cc2)s1 | 6.2 |
| CO[C@H]1/C=C/O[C@@]2(C)Oc3c(C)c(O)c4c(c3C2=O)C2=NC3(CCN(CC(C)C)CC3)NC2=C(NC(=O)/C(C)=C\C=C\[C@H](C)[C@H](O)[C@@H](C)[C@@H](O)[C@@H](C)[C@H](OC(C)=O)[C@@H]1C)C4=O | 61.5 |
| NC(CO)C(=O)NNCc1ccc(O)c(O)c1O (stereo not shown) | 107 |
| COc1cc2nc(N3CCN(C(=O)c4ccco4)CC3)nc(N)c2cc1OC | 6.52 |
| CN1C(C(=O)Nc2ccccn2)=C(O)c2sccc2S1(=O)=O | 52.4 |
| N=c1ccn2c(n1)O[C@H]1[C@H](O)[C@@H](CO)O[C@H]12 | 41.6 |

Sample 3 — effect on: enzyme activity; action: inhibitor; tested at: 0.5 µM; baseline: control
Target: Cyclin-dependent kinase 7 (CDK7, Homo sapiens, UniProt P50613)
Chain of UniProt P50613 (whole entry, looked up): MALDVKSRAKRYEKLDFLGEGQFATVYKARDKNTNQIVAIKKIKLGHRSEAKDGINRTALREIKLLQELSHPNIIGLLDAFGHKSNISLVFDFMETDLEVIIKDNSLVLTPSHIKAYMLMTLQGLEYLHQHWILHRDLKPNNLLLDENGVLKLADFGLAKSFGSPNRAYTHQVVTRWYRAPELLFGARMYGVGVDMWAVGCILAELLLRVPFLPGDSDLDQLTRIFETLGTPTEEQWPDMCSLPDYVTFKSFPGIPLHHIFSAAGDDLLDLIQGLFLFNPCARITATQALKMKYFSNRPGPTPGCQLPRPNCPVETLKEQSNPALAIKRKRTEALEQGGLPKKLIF
| Structure (SMILES) | remaining activity [%] |
| --- | --- |
| N#CC(C#N)=C(N)/C(C#N)=C/c1ccc(O)cc1 | 91.2 |
| CCOC(=O)c1c(C)[nH]c(/C=C2\C(=O)Nc3ccccc32)c1C | 96.8 |
| CN(C)c1ccc(C=C2C(=O)Nc3ccccc32)cc1 | 99.4 |
| Cn1sc(=O)n(Cc2ccccc2)c1=O | 96.8 |
| O=C1NC(=O)C(c2cn(CCCn3ccnc3)c3ccccc23)=C1Nc1ccccc1 | 96.3 |
| Cn1c2ccccc2c2c3c(c4c5ccccc5n(CCC#N)c4c21)CNC3=O | 84.6 |
| CC(C)[C@H](CO)Nc1nc(Nc2cc(N)cc(Cl)c2)c2ncn(C(C)C)c2n1 | 54.7 |
| COc1cc2ncnc(Nc3ccc(Oc4ccccc4)cc3)c2cc1OC | 102 |
| Nc1ncnc2n[nH]c(Nc3ccc(F)cc3)c12 | 98.4 |
| COc1cc2nccc(Oc3ccc(NC(=S)NC(=O)c4ccccc4C)cc3)c2cc1OC | 97.7 |
| O=C(Nc1cccc(Nc2cc(Nc3cccc(C(F)(F)F)c3)ncn2)c1)C1CC1 | 97.6 |
| COc1ccc(C(=O)Nc2sc3c(c2C(N)=O)CCCC3)cc1OC | 99.9 |
| OCC(O)CCON=C1C(c2c(O)[nH]c3ccccc23)=Nc2ccccc21 (stereo not shown) | 77.9 |
| Cc1ccc(NC(=O)c2ccc(CN3CCN(C)CC3)cc2)cc1Nc1nc(-c2cccnc2)cs1 | 110 |

Sample 4 — cell line: mouse MPNST tumor cells; technique: high-content nuclear imaging; item: cell number; tested at: 10 µM; time: 12 h; setting: mean of 2 replicates; baseline: plate mean; direction: higher = more cells
| Structure (SMILES) | nuclei count |
| --- | --- |
| COc1cc2c(cc1O)CC[C@@H]1[C@@H]2CC[C@]2(C)[C@@H](O)CC[C@@H]12 | -4.66 z-score |
| c1ccc(-c2cnn3cc(-c4ccc(OCCN5CCOCC5)cc4)cnc23)cc1 | 3.67 z-score |
| O=[N+]([O-])c1ccc(CSc2ncnc3c2ncn3[C@@H]2O[C@H](CO)[C@@H](O)[C@H]2O)cc1 | 1.47 z-score |
